Published values pooled from the literature.
Protocols differ between the studies behind these lines. Numbers after ± are the reported error.

Structure (SMILES) | target | test | system | conditions | how to read | endpoint | value
C[C@@H](O)[C@H](NC(=O)[C@H](CO)NC(=O)[C@H](CO)NC(=O)[C@@H](N)CCCCN)C(=O)N[C@@H](CCCNC(=N)N)C(=O)NCC(=O)N[C@@H](CCCNC(=N)N)C(=O)N[C@@H](CCCCN)C(=O)N[C@@H](CO)C(=O)N[C@@H](CO)C(=O)N[C@@H](CCCNC(=N)N)C(=O)N[C@@H](CCCNC(=N)N)C(=O)N[C@@H](CCCCN)C(=O)N[C@@H](CCCCN)C(=O)O | MRGPRX2 human | degranulation, agonist, item: β-hexosaminidase | LAD2 | – | baseline: total | maximal release | ~40%
Cc1sc2ncn(CC(=O)N3CCCC3)c(=O)c2c1-c1cccc(Br)c1 | NMDA receptor, mouse | single-channel current, outside-out patch | cortical neurons | concentration not given, together with: Ca2+ 0.5 mM | – | amplitude 2 area | 16%
Cc1cc(N)c2cc(NC(=O)COCC(=O)Nc3ccc4nc(C)cc(N)c4c3)ccc2n1 | unfractionated heparin | heparin neutralization, factor Xa chromogenic | – | together with: heparin 0.2 IU/mL, antithrombin III | – | IC50 | 2 ± 0.03 µM
Nc1nc2c(CN[C@H](CO)CCP(=O)(O)O)c[nH]c2c(=O)[nH]1 | HGXPRT Plasmodium falciparum | inhibitor | – | – | baseline: Ki T. cruzi HGXPRT over Ki P. falciparum HGXPRT | selectivity ratio | 1200 fold
COc1cccc(/C=C/C(=O)c2cccc3ccccc23)c1OC | TNF-alpha (mouse) | ELISA | RAW264.7 | 10 µM, 2 h pretreatment, together with: LPS 0.5 µg/mL for 22 h | baseline: LPS alone | inhibition | 89%
Cc1ccc(C(C)C)cc1.[C-]#[O+].[C-]#[O+].[C-]#[O+].[Cl-].[Cl-].[Cl-].[Re+].[Ru+2].c1cnc(-c2ncccn2)nc1 | calf thymus DNA | ethidium bromide displacement | – | DNA 120 µM, 50% quenching, together with: ethidium bromide 8 µM | – | apparent binding constant | 2e+06 M⁻¹
CCOc1ccc(-c2nc3cc(-c4nc5cc(N6CCN(C)CC6)ccc5[nH]4)ccc3[nH]2)cc1 | HIV-1 nucleocapsid protein-RNA NC•SL2 complex | ESI-FTMS | – | 0.35 to 17.5 µM, added to preformed complex | – | NC-RNA complex dissociation | no effect
COC(=O)c1cnc(-c2cnccn2)cc1C(=O)OC.COC(=O)c1cnc(-c2cnccn2)cc1C(=O)OC.[Cl-].[Cl-].[Cl-].[Cl-].[Cu+2].[Cu+2] | calf thymus DNA | ethidium bromide displacement | – | – | – | quenching rate constant | 1.67e+11 M⁻¹ s⁻¹
COc1ccccc1CCN1CNc2c(c(=O)[nH]c(=O)n2-c2cccc(Cl)c2C)C1 | P2X7 (giant panda) Y298A | ion current, whole-cell patch clamp | – | 1 µM | baseline: wild type | inhibition | decreased
Nc1nc2ccc(Cc3ccccc3)cc2s1 | MeAIB/glutamine transporter, rat | MeAIB uptake | hippocampal neurons, rat | 20 µM, together with: [14C]MeAIB 23.4 µM | – | inhibition | > 90%
CCOC(=O)[C@]1(c2ccccc2)N=C(c2ccc(OC)cc2)N(Cc2ccccc2)[C@@H]1c1ccc(NCc2ccccc2)cc1 | GFP-ODC | AlphaLISA | HEK293T stably expressing GFP-ODC | – | – | IC50 | 10 µM
COc1ccc2c(c1)c1c(C)c3cnccc3c(C)c1n2CCCN1CCN(C)CC1 | MYC promoter G-quadruplex DNA | CD thermal melt | – | – | baseline: G-quadruplex without compound | thermal stabilisation (ΔTm) | ~30 °C
CCCCOc1nc(N)c2[nH]c(=O)n(CCCN(CCCN3CCOCC3)Cc3cccc(CC(=O)OC)c3)c2n1 | other human TLRs | – | human cells | up to 10 µM | – | activity | inactive

A few entries again:
Structure (SMILES) | target | test | system | conditions | how to read | endpoint | value
COC(=O)c1cnc(-c2cnccn2)cc1C(=O)OC.COC(=O)c1cnc(-c2cnccn2)cc1C(=O)OC.[Cl-].[Cl-].[Cl-].[Cl-].[Cu+2].[Cu+2] | calf thymus DNA | ethidium bromide displacement | – | – | – | quenching rate constant | 1.67e+11 M⁻¹ s⁻¹
COc1cccc(/C=C/C(=O)c2cccc3ccccc23)c1OC | TNF-alpha (mouse) | ELISA | RAW264.7 | 10 µM, 2 h pretreatment, together with: LPS 0.5 µg/mL for 22 h | baseline: LPS alone | inhibition | 89%
